Published values pooled from the literature.
Compare with care: the assays were run in different laboratories. ± marks the error that the study gave.
gag-pol integrase: Gag-Pol polyprotein, integrase (gag-pol, Human immunodeficiency virus 1, UniProt P12497)
DRD3: D(3) dopamine receptor (DRD3, Homo sapiens, UniProt P35462)
Sequence of UniProt P35462 (whole entry, looked up): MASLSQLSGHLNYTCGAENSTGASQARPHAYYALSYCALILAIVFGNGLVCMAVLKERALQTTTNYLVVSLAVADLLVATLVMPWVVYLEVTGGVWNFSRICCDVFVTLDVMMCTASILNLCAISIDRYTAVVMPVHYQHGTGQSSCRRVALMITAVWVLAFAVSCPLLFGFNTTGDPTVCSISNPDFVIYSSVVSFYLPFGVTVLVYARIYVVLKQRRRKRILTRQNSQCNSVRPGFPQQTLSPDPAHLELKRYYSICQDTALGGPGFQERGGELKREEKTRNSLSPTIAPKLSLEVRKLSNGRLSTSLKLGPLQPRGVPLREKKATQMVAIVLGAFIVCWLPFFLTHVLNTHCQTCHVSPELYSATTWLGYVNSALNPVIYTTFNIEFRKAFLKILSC
BCHE: Cholinesterase (BCHE, Homo sapiens, UniProt P06276)
Sequence of UniProt P06276 (whole entry, looked up): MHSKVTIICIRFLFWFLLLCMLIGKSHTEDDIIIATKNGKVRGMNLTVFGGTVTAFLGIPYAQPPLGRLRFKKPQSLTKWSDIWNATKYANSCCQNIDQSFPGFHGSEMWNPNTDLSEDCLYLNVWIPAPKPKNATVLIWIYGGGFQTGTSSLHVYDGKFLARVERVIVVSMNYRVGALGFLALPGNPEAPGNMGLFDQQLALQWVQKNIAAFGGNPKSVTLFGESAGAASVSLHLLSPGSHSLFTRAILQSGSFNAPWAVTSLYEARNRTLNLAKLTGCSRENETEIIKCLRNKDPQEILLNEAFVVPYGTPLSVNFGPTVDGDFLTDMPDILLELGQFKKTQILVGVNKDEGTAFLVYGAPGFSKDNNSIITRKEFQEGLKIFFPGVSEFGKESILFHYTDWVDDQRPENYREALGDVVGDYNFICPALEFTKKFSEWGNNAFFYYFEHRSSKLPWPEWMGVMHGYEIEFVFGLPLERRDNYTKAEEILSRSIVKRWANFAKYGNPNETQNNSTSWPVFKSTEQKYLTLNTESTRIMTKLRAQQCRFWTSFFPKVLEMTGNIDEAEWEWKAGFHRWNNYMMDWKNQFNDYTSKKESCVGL
Sequence of UniProt Q7Z7M1 (whole entry, looked up): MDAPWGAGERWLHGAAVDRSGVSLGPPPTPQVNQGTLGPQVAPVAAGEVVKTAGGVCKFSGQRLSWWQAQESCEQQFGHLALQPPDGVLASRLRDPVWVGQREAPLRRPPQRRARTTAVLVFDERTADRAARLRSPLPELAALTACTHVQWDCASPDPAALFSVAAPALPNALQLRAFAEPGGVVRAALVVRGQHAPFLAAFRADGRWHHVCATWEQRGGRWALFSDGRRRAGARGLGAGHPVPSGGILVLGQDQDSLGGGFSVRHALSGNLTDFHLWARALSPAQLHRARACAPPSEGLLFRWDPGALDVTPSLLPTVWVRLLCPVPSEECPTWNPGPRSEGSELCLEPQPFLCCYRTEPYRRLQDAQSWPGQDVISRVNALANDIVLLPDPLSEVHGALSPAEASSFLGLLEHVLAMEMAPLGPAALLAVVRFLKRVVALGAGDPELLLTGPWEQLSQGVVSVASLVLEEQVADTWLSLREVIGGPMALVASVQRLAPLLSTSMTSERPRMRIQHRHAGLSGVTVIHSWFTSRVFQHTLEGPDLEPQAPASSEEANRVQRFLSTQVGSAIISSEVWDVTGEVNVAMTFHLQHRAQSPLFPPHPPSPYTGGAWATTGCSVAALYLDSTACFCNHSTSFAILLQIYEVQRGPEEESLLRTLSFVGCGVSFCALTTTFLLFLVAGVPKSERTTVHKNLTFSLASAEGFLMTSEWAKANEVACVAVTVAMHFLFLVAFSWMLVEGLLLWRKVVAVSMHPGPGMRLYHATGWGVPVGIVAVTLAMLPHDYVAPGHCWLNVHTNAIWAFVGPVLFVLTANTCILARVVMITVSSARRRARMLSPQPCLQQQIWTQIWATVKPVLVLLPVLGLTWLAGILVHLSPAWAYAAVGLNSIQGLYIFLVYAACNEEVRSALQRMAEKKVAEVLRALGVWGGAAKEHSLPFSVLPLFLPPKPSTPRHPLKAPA
Sequence of UniProt Q9UIA9 (whole entry, looked up): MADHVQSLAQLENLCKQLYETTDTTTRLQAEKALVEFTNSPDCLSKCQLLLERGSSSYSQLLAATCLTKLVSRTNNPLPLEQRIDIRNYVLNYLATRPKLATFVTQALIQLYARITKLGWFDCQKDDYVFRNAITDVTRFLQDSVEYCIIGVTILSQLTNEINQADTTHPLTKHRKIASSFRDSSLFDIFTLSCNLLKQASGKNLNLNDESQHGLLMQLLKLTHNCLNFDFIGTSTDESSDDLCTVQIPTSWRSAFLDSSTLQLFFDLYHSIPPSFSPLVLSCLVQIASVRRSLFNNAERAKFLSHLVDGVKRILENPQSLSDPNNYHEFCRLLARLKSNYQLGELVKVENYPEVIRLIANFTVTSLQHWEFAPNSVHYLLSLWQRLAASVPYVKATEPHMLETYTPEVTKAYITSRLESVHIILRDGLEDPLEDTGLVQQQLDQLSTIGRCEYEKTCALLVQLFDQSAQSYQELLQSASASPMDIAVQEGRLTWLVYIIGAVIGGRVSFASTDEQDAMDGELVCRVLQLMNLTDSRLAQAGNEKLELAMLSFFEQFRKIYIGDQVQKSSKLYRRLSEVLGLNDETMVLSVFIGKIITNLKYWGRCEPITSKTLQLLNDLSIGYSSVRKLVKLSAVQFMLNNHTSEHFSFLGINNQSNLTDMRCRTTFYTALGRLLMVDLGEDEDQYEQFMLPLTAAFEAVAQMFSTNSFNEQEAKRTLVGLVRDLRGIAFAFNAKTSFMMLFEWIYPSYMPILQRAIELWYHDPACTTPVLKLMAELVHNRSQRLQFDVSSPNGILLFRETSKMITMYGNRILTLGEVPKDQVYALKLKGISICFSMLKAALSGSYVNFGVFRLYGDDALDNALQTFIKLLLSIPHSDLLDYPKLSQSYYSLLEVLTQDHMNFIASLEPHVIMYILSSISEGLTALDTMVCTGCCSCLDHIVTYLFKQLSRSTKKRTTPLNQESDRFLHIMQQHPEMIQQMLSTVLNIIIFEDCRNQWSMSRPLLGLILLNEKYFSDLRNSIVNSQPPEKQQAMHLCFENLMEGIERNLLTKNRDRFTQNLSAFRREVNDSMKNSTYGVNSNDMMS

Compound	tested on	test	system	setting	how to read	quantity	value
O=C(N/N=C/c1c(O)ccc2ccccc12)c1n[nH]c2c1CCC2	gag-pol integrase	strand transfer activity, inhibitor	–	wild-type integrase	–	IC50	> 100 µM
Oc1ccc2c3c1O[C@H]1[C@@H](O)CC[C@@]4(O)[C@@H](C2)N(CC2CCC2)CC[C@]314	Adhesion G protein-coupled receptor D2 (ADGRD2, Homo sapiens, UniProt Q7Z7M1)	β-arrestin recruitment, TANGO luminescence, item: GPR144	–	concentration not given	reference: basal luminescence	log2 fold change	1.96
Cc1[nH]c(C)c(S(=O)(=O)Nc2ccc(S(F)(F)(F)(F)F)cc2)c1C(=O)N1CCC(F)(F)C1	DRD3	β-arrestin recruitment, allosteric modulator, operational model of allostery	–	with: dopamine	–	Kb	0.71 µM
C[C@H]1CN(c2n[nH]c3nc(N[C@H]4CC[C@H](NS(=O)(=O)CCC(F)(F)F)CC4)ncc23)CCO1	Exportin-7 (Homo sapiens, UniProt Q9UIA9)	biochemical	–	–	–	IC50	≥ 20 µM
CO[C@H]1C[C@@H]2CC[C@@H](C)[C@@](O)(O2)C(=O)C(=O)N2CCCC[C@H]2C(=O)O[C@H]([C@H](C)C[C@@H]2CC[C@@H](OC(=O)NCCOCCOCCOCCOCCOCCOCCOCCOCCC(=O)N3CCc4cc(Cn5nc(-c6ccc7oc(N)nc7c6)c6c(N)ncnc65)ccc4C3)[C@H](OC)C2)C[C@@H](O)[C@H](C)/C=C(\C)[C@@H](O)[C@@H](OC)C(=O)[C@H](C)C[C@H](C)/C=C/C=C/C=C/1C	–	–	patients with advanced solid tumours	intravenous, 6 mg weekly, any grade	–	anaemia incidence	25%
COc1cc(Nc2ncc(F)c(Nc3ccc4c(n3)NC(=O)C(C)(C)O4)n2)cc(OC)c1OC	DRD3	–	–	–	–	IC50	> 10 µM
c1ccc2sc(C3(N4CCCCC4)CCCCC3)cc2c1	BCHE	inhibitor, fluorometric	–	–	–	IC50	1.88 ± 0.74 µM
NNC(=O)c1ccncc1	Gag-Pol polyprotein, integrase with LEDGF/p75 (gag-pol, Human immunodeficiency virus 1, UniProt P12497)	LEDGF/p75-integrase interaction, inhibitor, AlphaScreen	–	–	–	IC50	> 1000 µM
CNCCCN1c2ccccc2CCc2ccccc21	Plasmodium falciparum	–	W2	–	–	IC50	1.58 µM
c1ccc(C2(c3ccccc3)CC2C2=NCCN2)cc1 (stereo not shown)	BCHE	inhibitor, fluorometric	–	–	–	IC50	8.02 ± 6.36 µM
COc1c(Cl)cc(Cl)cc1/C=N/NC(=O)c1ccncc1	gag-pol integrase	3'-processing activity, inhibitor	–	wild-type integrase	–	IC50	> 100 µM
CC[C@H](C)[C@H](NC(=O)[C@H](Cc1ccccc1)NC(=O)[C@H](CCC(=O)O)NC(=O)[C@H](CCCNC(=N)N)NC(=O)[C@H](C)NC(=O)[C@H](C)NC(=O)[C@H](CCC(N)=O)NC(=O)[C@H](CCC(=O)O)NC(=O)[C@H](CCC(=O)O)NC(=O)[C@H](CC(C)C)NC(=O)[C@H](Cc1ccc(O)cc1)NC(=O)[C@H](CO)NC(=O)[C@H](CO)NC(=O)[C@@H](NC(=O)[C@H](CC(=O)O)NC(=O)[C@H](CO)NC(=O)[C@@H](NC(=O)[C@H](Cc1ccccc1)NC(=O)[C@@H](NC(=O)CNC(=O)[C@H](CCC(=O)O)NC(=O)[C@H](C)NC(=O)CCc1c[nH]cn1)[C@@H](C)O)[C@@H](C)O)C(C)C)C(=O)N[C@@H](C)C(=O)N[C@@H](Cc1c[nH]c2ccccc12)C(=O)N[C@@H](CC(C)C)C(=O)N[C@H](C(=O)N[C@@H](CCCNC(=N)N)C(=O)NCC(=O)N[C@@H](CCCNC(=N)N)C(=O)N[C@@H](CCCCNC(=O)COCCOCCNC(=O)COCCOCCNC(=O)CC[C@H](NC(=O)CCCCCCCCCCCCCCCCC(=O)O)C(=O)O)C(=O)NCC(=O)NCC(=O)N[C@@H](CO)C(=O)N[C@@H](CCCCNc1c(NCCCCCN(O)C(=O)CCC(=O)NCCCCCN(O)C(=O)CCC(=O)NCCCCCN(O)C(C)=O)c(=O)c1=O)C(=O)O)C(C)C [zirconium-89 labelled]	–	gamma counting	rat, stomach-duodenum	intravenous, 3 nmol/kg, 168 h	–	tissue uptake	0.41 %ID/g
CCC1=C[C@@H]2CN3CCc4c([nH]c5ccccc45)[C@@](C(=O)OC)(C2)[C@@H]13	BCHE	inhibitor	–	–	–	IC50	1.23 ± 0.17 µM
